Measured values pooled from the literature.
Each numbered part is a random draw from the data of one study; scales do not carry over between parts.

Set 1 — method: RNA Bind-n-Seq; form: RNA; matrix: in vitro; tested at: 1 µM; notes: whole 134-nt RNA, ends assumed; with: 150 mM KCl; reference: input library; direction: higher = stronger binding
Target: Ras GTPase-activating protein-binding protein 1, C-terminal RGG region (G3BP1, Homo sapiens, UniProt Q13283)
Chain of UniProt Q13283 (whole entry, looked up): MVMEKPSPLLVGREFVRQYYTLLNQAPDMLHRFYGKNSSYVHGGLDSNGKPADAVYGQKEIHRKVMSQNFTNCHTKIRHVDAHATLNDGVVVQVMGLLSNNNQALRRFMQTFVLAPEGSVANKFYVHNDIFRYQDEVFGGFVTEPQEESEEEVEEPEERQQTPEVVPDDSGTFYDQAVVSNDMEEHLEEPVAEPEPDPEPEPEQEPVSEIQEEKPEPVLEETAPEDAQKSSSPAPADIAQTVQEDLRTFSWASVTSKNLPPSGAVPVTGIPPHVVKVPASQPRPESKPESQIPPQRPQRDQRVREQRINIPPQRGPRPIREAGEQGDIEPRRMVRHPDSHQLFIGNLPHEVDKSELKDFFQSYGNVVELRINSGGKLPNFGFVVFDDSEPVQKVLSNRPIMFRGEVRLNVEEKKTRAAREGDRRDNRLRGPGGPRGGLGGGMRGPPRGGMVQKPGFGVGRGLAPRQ
The log2 enrichment of `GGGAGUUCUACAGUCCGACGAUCUAACUUUAGAGGAGGAUCUGAUGGAUAUGGCAGUGGACGUGGAUUUGGGGAUGGCUAUAAUAGGUAUGGAGGAGGACCUGGAGGUGGCAAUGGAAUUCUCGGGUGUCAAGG` is reported as -0.387.
With `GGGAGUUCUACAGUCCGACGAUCGUCCUGUGCUACACAUCGUAUGUACCGAAUCGGGGAAAAAAAGGGGUUUGGGGUGGGGAAAGUAUUAUGUUACGCCGUUCGGAUCUGCACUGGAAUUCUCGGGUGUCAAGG` the log2 enrichment was 2.32.
`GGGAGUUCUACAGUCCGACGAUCGUCCUGUGCUACACAUCGUAUGUACCGAAUCGGGCCCCCGGGCCCCCGGGCCCCCGGGGAAAGUAUUAUGUUACGCCGUUCGGAUCUGCAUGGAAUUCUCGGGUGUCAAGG` has a log2 enrichment of -2.11.
The log2 enrichment of `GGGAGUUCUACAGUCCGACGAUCAAGUCCUGUGCUACACAUCGUAUGUACCGAAUCAAACCCCCAAACCCAAAUUUAAAAAAGUAUUAUGUUACGCCGUUCGGAUCUGCACUUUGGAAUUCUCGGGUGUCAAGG` is reported as -0.845.
The log2 enrichment of `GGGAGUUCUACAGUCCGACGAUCAGUCCUGUGCUACACAUCGUAUGUACCGAAUCGGGUUUUGGGUUUUGGGUUUUGGGGAAAGUAUUAUGUUACGCCGUUCGGAUCUGCACUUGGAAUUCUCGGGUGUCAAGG` is reported as 1.66.
`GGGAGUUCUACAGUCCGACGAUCGCAGGAAGUAAAAACAAAUGGAAAUGCUUCGGAUAGUGGCAGGGGUGGGGGUAGCUAAGGAAAGGGUGGGAUGGGAGUGGGUAAAGAGUUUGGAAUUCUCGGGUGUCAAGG` gave a log2 enrichment of 0.539.
The log2 enrichment of `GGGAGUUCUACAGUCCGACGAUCUUGCUAACUUCAAGAUAGAGCCUCCUGGACUUUUCCGUGGCCGCGGCAACCACCCCAAGAUGGGCAUGCUGAAGAGACGAAUCAUGCCCGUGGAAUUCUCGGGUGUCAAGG` is reported as -0.973.
`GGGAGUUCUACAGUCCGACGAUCUCCUGUGCUACACAUCGUAUGUACCGAAUCGGAAAAAAGGAAAAAAGGGGAAAAAAGGGGAAAGUAUUAUGUUACGCCGUUCGGAUCUGCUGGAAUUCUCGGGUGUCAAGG` has a log2 enrichment of -1.48.
`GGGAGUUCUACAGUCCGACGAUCUCCUGUGCUACACAUCGUAUGUACCGAAUCGGGCCCCCCGGCCCCCCGGGGCCCCCCGGGAAAGUAUUAUGUUACGCCGUUCGGAUCUGCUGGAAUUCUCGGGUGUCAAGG` gave a log2 enrichment of -0.594.

Set 2 — method: protein binding microarray; form: double-stranded DNA, one strand shown; matrix: in vitro; tested at: not given; reference: not given; direction: higher = stronger binding
Target: Histone acetyltransferase KAT6A, both winged helices, GST fusion (KAT6A, Homo sapiens, UniProt Q92794, residues 1-181)
Notes: 8-mer, flanks averaged, mean of 2 arrays, mostly near background
Residues (chain): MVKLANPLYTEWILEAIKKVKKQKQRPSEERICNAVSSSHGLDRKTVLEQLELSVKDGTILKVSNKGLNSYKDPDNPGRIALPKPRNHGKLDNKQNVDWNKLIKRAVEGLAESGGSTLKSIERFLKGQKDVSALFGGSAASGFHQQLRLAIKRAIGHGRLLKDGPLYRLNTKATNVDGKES
`AAACTTAC` has an E-score of -0.101.
`GGGGCTCA` has an E-score of -0.13.
With `ACAGGAGC` the E-score was -0.0172.
`AACTCGTC` has an E-score of -0.169.
`AGATGCAA` has an E-score of -0.204.
For `AAGGTGAC`, the E-score was -0.209.
The E-score of `CCGCGCAC` is reported as 0.311.
`ACAGTTAG` has an E-score of -0.0166.
The E-score of `ACGTTAGA` is reported as -0.0473.
`GATCAGCA` has an E-score of -0.127.
For `CGTGTAAC`, the E-score was 0.0467.
`CATACGAA` has an E-score of -0.0442.
The E-score of `AAGAGAGG` is reported as -0.202.
`CACAAAAG` gave an E-score of -0.0917.
With `AGGACTAC` the E-score was -0.0473.
The E-score of `AGGCGAAG` is reported as -0.086.
With `AGGTATGC` the E-score was -0.0625.
The E-score of `CGTAGTCA` is reported as -0.0295.
The E-score of `ACTCGCCC` is reported as -0.053.
`CCCGGTCG` has an E-score of 0.276.
For `GCGCGGTA`, the E-score was 0.38.
The E-score of `CAGGATAC` is reported as -0.0901.
The E-score of `ATACGGTG` is reported as 0.138.
For `CCGACACC`, the E-score was 0.181.
For `AGACTTCA`, the E-score was -0.228.

Set 3 — method: RNA Bind-n-Seq; form: RNA; matrix: in vitro; tested at: 365 nM; reference: no-protein control; direction: higher = stronger binding
Target: RNA binding protein fox-1 homolog 2, RRM domain, GST-SBP tag (RBFOX2, Homo sapiens, UniProt O43251-10, residues 100-194)
Notes: natural RNA segment, single round, ends assumed
Residues (chain): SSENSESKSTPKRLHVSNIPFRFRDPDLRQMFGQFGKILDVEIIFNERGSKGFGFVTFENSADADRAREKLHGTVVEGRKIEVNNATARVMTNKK
Under “RBNS enrichment (R)”, `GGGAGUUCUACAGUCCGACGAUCAUGGCUCUGCCUAGAGAUGUUCCUUGGGGUCUGUGAGGUUCUGUCAACUGCUAGUGCUAACGCUGUCCUGUACAACCUAACUCACUGGCAAGAAUGCAGUGUUGGGCCUUUGGAAUUCUCGGGUGCCAA` is recorded as 0.854.
For `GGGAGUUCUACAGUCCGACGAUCCCCAGCCCCCAGGCACAAGGGGCAGAGAGACAGGCAGUCGCCCCAGAUAGGCUCCGGGGAAGUCCAUUCCAGCUGCCACCGGCAGACAGGAGGAUAGUUGUUCUGUCUUGUGGAAUUCUCGGGUGCCAA`, “RBNS enrichment (R)” read 0.211.
`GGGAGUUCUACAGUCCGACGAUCAGGGAAUAGUUUAUAUGGACCUUUUUGUCAACAAUAAGCUAUUGUAAAGAUAUUUAAUGUUCUGUUUAUUUAAUUGCUUCUUAAAUUGAUAUGAUUUUCUUAUAAAACAGUGGAAUUCUCGGGUGCCAA` — result for “RBNS enrichment (R)”: 0.499.
Under “RBNS enrichment (R)”, `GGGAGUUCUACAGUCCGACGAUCUGAAGUUAUCUCCUUGGGCACUUGUCAAAUAUGCUGCUUUUAACCGGCGAUUCUAAUGGGAUUGACUGACUGGAGACCUCACAUCAUGUUCACAUUUAACCUUAAACACCUGGAAUUCUCGGGUGCCAA` is recorded as 0.247.
For `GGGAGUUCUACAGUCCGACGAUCCUAAUUGUGUUUGUCCGUCCAUGCCAUGAAUGAGUGGGCUGUAGUUGGGCCUAAAUAAAUGAGCUGUUGGAAGAAAAGAAUCACAGUACUUUCCAGCAGUCAGUCCCUGGUGGAAUUCUCGGGUGCCAA`, “RBNS enrichment (R)” read 0.623.
Under “RBNS enrichment (R)”, `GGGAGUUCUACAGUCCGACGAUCUAUUAUAUACAGAUUUUAAAAAAGAGAUAAUGCCUAUGUACCAGGGAGAAGGAGCGGGCCCUCCCGCGCCCUGUGCUGGCCGGAGCAGCGUUUUCUUAUGGUGGAGCAGCUGGAAUUCUCGGGUGCCAA` is recorded as 0.342.
`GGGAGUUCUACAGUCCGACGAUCGCUCUUGGAAAAGAGGUUUUCUUUUCUAAGCCGCCGUUCGUGACCUCUGACCUCUGGUUCUAUUUUGGUAAGCUCCCAGCAGACACUUCCAAGUCUUGUACCAAGGGCAGUGGAAUUCUCGGGUGCCAA`: “RBNS enrichment (R)” 0.218.
`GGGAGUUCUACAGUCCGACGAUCGCUGGUCUUUGUCGCCUAAUUAGGGUAUCCUAGCUAUGUUCCAUUUCUAGUAAGGGGCUGUAGUUAGAUGACUCUUGUAUAGAUUUCAGUUACUUAUGCUGAAGAUCCCUUGGAAUUCUCGGGUGCCAA`: “RBNS enrichment (R)” 0.209.

Set 4 — method: aptamer microarray, sandwich; form: DNA with 2'F-ANA; matrix: in vitro; tested at: 200 nM; with: Cy3 exosite-II aptamer, 400 nM; direction: higher = stronger binding; strand: GGTTGGTGTGGTTGG
Target: Prothrombin, mature alpha-thrombin (F2, Homo sapiens, UniProt P00734)
Notes: whole 15-mer aptamer, many near background
`2'F-ANA at 7 8 9 10 15` — result for “mean fluorescence intensity”: 164 a.u.
For `2'F-ANA at 2 3 6 8 9 10 12 13 14`, “mean fluorescence intensity” read 266 a.u.
Under “mean fluorescence intensity”, `2'F-ANA at 1 3 5 6 9 11 13 15` is recorded as 55 a.u.
For `2'F-ANA at 5 7 8 9 10 11 12`, “mean fluorescence intensity” read 54.8 a.u.
Under “mean fluorescence intensity”, `2'F-ANA at 1 3 4 5 6 7 9 13 14 15` is recorded as 48.5 a.u.
For `2'F-ANA at 2 3 6 10 11 12 14 15`, “mean fluorescence intensity” read 217 a.u.
`2'F-ANA at 2 4 5 9 10 12 13` — result for “mean fluorescence intensity”: 44.9 a.u.
`2'F-ANA at 1 3 5 9 11 12 14`: “mean fluorescence intensity” 47.8 a.u.
`2'F-ANA at 4 7 10 11 14`: “mean fluorescence intensity” 63.1 a.u.
For `2'F-ANA at 3 4 5 6 11 13 14`, “mean fluorescence intensity” read 56.4 a.u.
`2'F-ANA at 1 2 3 5 8 9 10 12 14` — result for “mean fluorescence intensity”: 59.1 a.u.
`2'F-ANA at 1 6 7 8 9 10 13`: “mean fluorescence intensity” 54.3 a.u.
For `2'F-ANA at 1 2 3 7 8 9 10 11 13 14`, “mean fluorescence intensity” read 55.2 a.u.
`2'F-ANA at 1 3 4 5 8 10 12 13 14 15` — result for “mean fluorescence intensity”: 61.6 a.u.
Under “mean fluorescence intensity”, `2'F-ANA at 2 3 9 10 11 15` is recorded as 458 a.u.
`2'F-ANA at 1 5 11 13 14 15`: “mean fluorescence intensity” 43.1 a.u.
For `2'F-ANA at 1 3 5 6 7 10 12 14`, “mean fluorescence intensity” read 46.4 a.u.
`2'F-ANA at 1 2 3 4 7 8 9 10 11 12 15`: “mean fluorescence intensity” 90.7 a.u.
Under “mean fluorescence intensity”, `2'F-ANA at 1 2 3 4 6 7 14` is recorded as 59.1 a.u.
Under “mean fluorescence intensity”, `2'F-ANA at 1 6 7 11 12 13` is recorded as 245 a.u.
`2'F-ANA at 1 2 3 8 9 11 14` — result for “mean fluorescence intensity”: 69.2 a.u.
`2'F-ANA at 3 4 6 8 10 11 15`: “mean fluorescence intensity” 204 a.u.
`2'F-ANA at 2 4 5 7 8 9 10 12 15`: “mean fluorescence intensity” 54.2 a.u.
`2'F-ANA at 1 3 6 7 9 11 13 15`: “mean fluorescence intensity” 170 a.u.
`2'F-ANA at 5 10 12 14` — result for “mean fluorescence intensity”: 43.9 a.u.

Repeated from above (set 1):
With `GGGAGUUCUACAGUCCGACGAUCGUCCUGUGCUACACAUCGUAUGUACCGAAUCGGGGAAAAAAAGGGGUUUGGGGUGGGGAAAGUAUUAUGUUACGCCGUUCGGAUCUGCACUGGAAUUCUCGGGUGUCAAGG` the log2 enrichment was 2.32.
The log2 enrichment of `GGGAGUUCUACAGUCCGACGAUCUAACUUUAGAGGAGGAUCUGAUGGAUAUGGCAGUGGACGUGGAUUUGGGGAUGGCUAUAAUAGGUAUGGAGGAGGACCUGGAGGUGGCAAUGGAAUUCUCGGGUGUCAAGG` is reported as -0.387.
`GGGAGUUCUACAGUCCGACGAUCGUCCUGUGCUACACAUCGUAUGUACCGAAUCGGGCCCCCGGGCCCCCGGGCCCCCGGGGAAAGUAUUAUGUUACGCCGUUCGGAUCUGCAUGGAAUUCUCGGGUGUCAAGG` has a log2 enrichment of -2.11.
`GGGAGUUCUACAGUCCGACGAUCUCCUGUGCUACACAUCGUAUGUACCGAAUCGGAAAAAAGGAAAAAAGGGGAAAAAAGGGGAAAGUAUUAUGUUACGCCGUUCGGAUCUGCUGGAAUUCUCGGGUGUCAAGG` has a log2 enrichment of -1.48.
`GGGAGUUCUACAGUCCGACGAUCUCCUGUGCUACACAUCGUAUGUACCGAAUCGGGCCCCCCGGCCCCCCGGGGCCCCCCGGGAAAGUAUUAUGUUACGCCGUUCGGAUCUGCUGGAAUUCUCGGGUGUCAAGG` gave a log2 enrichment of -0.594.
